Assay results of several laboratories.
Parts stem from different laboratories: compare values within a part only. Substitutions count along the parent as printed.
Sequence of UniProt Q9HC98 (whole entry, looked up): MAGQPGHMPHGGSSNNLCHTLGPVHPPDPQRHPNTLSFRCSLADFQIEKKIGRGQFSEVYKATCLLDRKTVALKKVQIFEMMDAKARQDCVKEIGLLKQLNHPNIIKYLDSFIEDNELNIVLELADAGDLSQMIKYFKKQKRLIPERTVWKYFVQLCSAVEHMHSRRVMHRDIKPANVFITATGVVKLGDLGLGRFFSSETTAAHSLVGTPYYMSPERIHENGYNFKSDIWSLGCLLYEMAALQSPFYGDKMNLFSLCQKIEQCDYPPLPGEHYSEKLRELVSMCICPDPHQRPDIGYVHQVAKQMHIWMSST
Sequence of UniProt Q13464 (whole entry, looked up): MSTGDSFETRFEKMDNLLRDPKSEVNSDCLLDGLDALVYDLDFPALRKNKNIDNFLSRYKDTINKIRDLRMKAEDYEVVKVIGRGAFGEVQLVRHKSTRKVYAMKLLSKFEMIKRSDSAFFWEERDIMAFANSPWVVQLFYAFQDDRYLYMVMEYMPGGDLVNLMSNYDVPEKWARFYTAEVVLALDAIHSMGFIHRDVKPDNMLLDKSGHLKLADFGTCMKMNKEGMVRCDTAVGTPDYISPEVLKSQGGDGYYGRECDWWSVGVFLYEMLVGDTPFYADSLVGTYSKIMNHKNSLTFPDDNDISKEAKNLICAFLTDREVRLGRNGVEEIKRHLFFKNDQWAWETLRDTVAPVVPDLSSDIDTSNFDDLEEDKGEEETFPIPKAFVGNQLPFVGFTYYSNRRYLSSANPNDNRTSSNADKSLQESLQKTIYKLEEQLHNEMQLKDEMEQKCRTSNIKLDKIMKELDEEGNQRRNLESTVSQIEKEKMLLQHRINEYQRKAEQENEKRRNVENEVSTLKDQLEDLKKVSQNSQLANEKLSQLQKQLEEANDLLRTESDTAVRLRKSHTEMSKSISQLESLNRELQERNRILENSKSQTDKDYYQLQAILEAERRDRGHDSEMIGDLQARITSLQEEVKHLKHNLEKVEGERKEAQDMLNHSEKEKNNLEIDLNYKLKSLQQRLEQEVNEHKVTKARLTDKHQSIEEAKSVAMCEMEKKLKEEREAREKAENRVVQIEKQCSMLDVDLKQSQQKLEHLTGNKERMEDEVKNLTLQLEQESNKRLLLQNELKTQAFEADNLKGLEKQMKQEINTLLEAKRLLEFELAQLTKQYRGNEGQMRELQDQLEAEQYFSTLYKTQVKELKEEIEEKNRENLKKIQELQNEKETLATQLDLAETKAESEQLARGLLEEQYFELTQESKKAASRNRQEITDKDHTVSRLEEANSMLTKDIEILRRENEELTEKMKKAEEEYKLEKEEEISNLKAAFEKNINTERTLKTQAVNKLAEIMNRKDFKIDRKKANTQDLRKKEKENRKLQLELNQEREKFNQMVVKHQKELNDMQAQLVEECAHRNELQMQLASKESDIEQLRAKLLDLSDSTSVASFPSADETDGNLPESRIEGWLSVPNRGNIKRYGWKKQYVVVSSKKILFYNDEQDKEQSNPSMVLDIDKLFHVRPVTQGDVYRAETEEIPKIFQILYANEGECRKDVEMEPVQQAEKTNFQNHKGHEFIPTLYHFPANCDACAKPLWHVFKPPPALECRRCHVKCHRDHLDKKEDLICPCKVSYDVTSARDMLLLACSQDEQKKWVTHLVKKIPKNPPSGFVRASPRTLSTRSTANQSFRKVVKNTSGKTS
Sequence of UniProt Q13043 (whole entry, looked up): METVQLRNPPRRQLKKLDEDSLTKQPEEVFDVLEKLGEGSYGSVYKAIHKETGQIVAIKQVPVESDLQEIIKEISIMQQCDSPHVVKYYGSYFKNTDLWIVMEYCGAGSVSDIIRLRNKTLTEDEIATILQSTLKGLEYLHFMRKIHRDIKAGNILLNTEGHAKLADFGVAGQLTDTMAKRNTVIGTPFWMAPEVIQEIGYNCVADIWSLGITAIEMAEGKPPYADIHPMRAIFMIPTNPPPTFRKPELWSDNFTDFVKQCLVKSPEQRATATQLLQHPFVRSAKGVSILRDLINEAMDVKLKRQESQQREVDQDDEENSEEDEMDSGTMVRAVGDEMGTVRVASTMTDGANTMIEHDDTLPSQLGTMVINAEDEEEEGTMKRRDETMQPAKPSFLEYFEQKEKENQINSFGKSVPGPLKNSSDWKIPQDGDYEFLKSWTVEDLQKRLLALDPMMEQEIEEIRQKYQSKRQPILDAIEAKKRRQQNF
Sequence of UniProt P10721 (whole entry, unmodified, looked up): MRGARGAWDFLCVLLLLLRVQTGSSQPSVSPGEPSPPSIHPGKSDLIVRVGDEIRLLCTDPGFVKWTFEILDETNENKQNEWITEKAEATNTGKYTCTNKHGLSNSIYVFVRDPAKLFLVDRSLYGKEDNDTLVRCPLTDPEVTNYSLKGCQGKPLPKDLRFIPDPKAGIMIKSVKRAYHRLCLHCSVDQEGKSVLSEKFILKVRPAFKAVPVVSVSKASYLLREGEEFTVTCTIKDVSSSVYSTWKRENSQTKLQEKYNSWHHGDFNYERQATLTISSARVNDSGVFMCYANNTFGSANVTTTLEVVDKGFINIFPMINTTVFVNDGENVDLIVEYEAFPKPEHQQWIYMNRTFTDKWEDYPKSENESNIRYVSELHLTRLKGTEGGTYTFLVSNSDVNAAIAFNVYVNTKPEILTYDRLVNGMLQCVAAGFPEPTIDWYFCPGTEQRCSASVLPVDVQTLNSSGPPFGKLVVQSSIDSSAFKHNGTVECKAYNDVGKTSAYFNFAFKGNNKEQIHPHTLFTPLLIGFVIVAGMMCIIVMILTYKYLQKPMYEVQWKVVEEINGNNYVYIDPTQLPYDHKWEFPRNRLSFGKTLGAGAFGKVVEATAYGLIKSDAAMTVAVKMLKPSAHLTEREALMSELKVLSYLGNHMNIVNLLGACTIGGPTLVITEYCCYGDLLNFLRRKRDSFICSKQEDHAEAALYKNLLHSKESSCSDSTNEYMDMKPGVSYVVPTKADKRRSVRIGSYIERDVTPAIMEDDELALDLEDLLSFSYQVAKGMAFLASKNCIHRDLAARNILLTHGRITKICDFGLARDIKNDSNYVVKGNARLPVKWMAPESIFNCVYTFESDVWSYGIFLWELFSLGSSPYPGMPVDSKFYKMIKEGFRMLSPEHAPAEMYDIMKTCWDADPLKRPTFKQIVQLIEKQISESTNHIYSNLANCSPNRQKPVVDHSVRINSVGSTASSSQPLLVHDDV
Sequence of UniProt Q02763 (whole entry, looked up): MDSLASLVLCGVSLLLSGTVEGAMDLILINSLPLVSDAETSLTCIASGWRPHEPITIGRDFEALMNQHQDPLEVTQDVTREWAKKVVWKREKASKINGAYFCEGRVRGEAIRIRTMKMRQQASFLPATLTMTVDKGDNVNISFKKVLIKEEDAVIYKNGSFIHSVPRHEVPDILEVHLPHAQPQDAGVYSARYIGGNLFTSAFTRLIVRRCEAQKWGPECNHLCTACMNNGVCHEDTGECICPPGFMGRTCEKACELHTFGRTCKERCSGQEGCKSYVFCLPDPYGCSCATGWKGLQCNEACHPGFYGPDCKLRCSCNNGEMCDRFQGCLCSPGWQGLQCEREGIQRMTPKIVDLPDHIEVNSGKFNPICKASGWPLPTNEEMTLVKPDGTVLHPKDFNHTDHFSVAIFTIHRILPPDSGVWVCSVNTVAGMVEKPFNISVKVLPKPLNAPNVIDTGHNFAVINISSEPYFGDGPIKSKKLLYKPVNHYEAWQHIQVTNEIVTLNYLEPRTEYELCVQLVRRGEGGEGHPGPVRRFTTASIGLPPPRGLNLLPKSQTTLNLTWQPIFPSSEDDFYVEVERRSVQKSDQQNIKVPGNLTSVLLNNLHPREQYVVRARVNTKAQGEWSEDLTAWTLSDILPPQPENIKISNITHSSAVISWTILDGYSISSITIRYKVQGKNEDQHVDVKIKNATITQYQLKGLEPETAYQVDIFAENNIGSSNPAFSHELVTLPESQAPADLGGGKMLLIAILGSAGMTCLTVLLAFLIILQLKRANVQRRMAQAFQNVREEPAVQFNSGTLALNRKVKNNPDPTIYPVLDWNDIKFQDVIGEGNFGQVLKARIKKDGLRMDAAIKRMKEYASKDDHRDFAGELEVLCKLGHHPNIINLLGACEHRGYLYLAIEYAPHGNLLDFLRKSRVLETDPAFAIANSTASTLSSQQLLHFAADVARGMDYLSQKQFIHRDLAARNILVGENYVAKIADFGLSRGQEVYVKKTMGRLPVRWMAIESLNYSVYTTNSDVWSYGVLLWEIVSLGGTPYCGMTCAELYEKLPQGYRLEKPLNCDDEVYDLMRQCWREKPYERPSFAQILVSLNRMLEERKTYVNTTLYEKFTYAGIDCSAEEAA
Sequence of UniProt P49137 (whole entry, looked up): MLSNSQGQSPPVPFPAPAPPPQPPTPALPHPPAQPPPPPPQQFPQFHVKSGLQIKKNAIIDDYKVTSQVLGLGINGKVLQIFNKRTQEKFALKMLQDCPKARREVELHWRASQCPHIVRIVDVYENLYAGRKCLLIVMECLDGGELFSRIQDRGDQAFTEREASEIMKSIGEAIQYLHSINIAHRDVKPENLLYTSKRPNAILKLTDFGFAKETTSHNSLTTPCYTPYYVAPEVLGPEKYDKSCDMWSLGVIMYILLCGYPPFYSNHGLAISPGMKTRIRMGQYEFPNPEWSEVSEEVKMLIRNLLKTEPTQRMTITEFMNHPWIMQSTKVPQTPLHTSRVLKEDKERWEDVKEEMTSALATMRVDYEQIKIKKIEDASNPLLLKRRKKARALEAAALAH
Sequence of UniProt P78368 (whole entry, looked up): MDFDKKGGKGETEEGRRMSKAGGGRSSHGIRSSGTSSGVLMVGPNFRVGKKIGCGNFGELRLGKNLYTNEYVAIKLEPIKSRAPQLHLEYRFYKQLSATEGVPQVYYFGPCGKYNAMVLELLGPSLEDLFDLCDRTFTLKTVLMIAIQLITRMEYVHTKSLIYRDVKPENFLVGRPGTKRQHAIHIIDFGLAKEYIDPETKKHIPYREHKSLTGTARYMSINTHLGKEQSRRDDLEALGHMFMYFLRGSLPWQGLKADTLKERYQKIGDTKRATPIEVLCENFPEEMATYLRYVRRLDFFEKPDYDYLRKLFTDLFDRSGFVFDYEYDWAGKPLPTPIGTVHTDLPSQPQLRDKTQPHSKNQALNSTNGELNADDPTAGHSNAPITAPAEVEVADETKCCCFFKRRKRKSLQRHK

Set 1
Compound: O=C(NS(=O)(=O)c1ccc(NCC2CCOCC2)c([N+](=O)[O-])c1)c1ccc(N2CCN(Cc3ccc(C(F)(F)F)cc3-c3ccc(Cl)cc3)CC2)cc1Oc1cnc2[nH]ccc2c1
Effect on: cell-free assay
Method: competition with immobilised ligand
Tested at: 1 µM
target | remaining binding [%]
LATS2 (Homo sapiens, UniProt Q9NRM7) | 100
Ribosomal protein S6 kinase alpha-4, C-terminal kinase domain (RPS6KA4, Homo sapiens, UniProt O75676) | 89
NTRK2 (Homo sapiens, UniProt Q16620) | 88
Tyrosine-protein kinase ABL1, non-phosphorylated (ABL1, Homo sapiens, UniProt P00519) | 100
KIT (Homo sapiens, UniProt P10721, D816V) | 100
ROCK1 (Homo sapiens, UniProt Q13464) | 100
DDR1 (Homo sapiens, UniProt Q08345) | 100
NEK10 (Homo sapiens, UniProt Q6ZWH5) | 100
EPHA5 (Homo sapiens, UniProt P54756) | 76
Ribosomal protein S6 kinase alpha-2, C-terminal kinase domain (RPS6KA2, Homo sapiens, UniProt Q15349) | 100
Tyrosine-protein kinase ABL1, phosphorylated (ABL1, Homo sapiens, UniProt P00519, Q252H) | 84
SNRK (Homo sapiens, UniProt Q9NRH2) | 100
PIKFYVE (Homo sapiens, UniProt Q9Y2I7) | 100
PRKG1 (Homo sapiens, UniProt Q13976) | 96
STK4 (Homo sapiens, UniProt Q13043) | 94
FGFR2 (Homo sapiens, UniProt P21802) | 100

Set 2
SMILES: CCCNC(=O)Nc1ccc(Oc2ncnc3cc(OC)c(OC)cc23)cc1Cl
Effect on: enzyme activity
Mode: inhibitor
Tested at: 0.5 µM
Reference: control
target | remaining activity [%]
LCK (Homo sapiens, UniProt P06239) | 81.8
TEK (Homo sapiens, UniProt Q02763) | 87
NEK1 (Homo sapiens, UniProt Q96PY6) | 91.8
JAK3 (Homo sapiens, UniProt P52333) | 88.9
CSNK1G2 (Homo sapiens, UniProt P78368) | 84.8
NEK6 (Homo sapiens, UniProt Q9HC98) | 105
MERTK (Homo sapiens, UniProt Q12866) | 67.7
MAP3K5 (Homo sapiens, UniProt Q99683) | 102
WEE1 (Homo sapiens, UniProt P30291) | 92.9
EPHA3 (Homo sapiens, UniProt P29320) | 98.5
MAPKAPK2 (Homo sapiens, UniProt P49137) | 101
TBK1 (Homo sapiens, UniProt Q9UHD2) | 90
ABL2 (Homo sapiens, UniProt P42684) | 90.5
FGFR1 (Homo sapiens, UniProt P11362) | 75.4

Set 3
Target: Runt-related transcription factor 1, full length (RUNX1, Homo sapiens, UniProt Q01196-8, residues 1-480)
Method: protein-binding microarray
Form: hairpin DNA
Sample: in vitro
Tested at: not given
Notes: whole hairpin DNA, median over replicate spots
Reference: not given
Direction: higher = stronger binding
Sequence | median fluorescence [a.u.]
GAGGCCTGTTGCGCTTGGCCTCCTGGCCAAGCGCAACAGGCCTCACACTC (5mC at 14) | 1690
GAGGCCTGGTGCGGTTGGCCTCCTGGCCAACCGCACCAGGCCTCACACTC | 2920
CTCAGTTCTGTGGGCGGGACTCCTGTCCCGCCCACAGAACTGAGACACTC (5mC at 15 29) | 2250
CTCAGATCTGTGGGCTGGACTCCTGTCCAGCCCACAGATCTGAGACACTC | 1960
CTCAGTTCTTTGGGCTGGACTCCTGTCCAGCCCAAAGAACTGAGACACTC | 1660
CTCAGTCGTGTGGGCTGGACTCCTGTCCAGCCCACACGACTGAGACACTC (5mC at 37) | 1940
GAGGCCTGTTGCGGTTGGCCTCCTGGCCAACCGCAACAGGCCTCACACTC (5mC at 31) | 1720
GAGGCCCAACGGCAACAGCCTCCTGGCTGTTGCCGTTGGGCCTCACACTC (5mC at 34) | 1690

Set 4
Target: NFE2L2, bZIP domain (human)
Method: DHFR protein complementation
Sample: yeast
Notes: single substitutions, most at no-binding floor
Reference: wild-type JUN-FOS pair
Direction: higher = stronger binding
Parent: JUN, bZIP domain (human); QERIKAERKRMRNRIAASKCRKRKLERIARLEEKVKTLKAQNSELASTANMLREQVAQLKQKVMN; partner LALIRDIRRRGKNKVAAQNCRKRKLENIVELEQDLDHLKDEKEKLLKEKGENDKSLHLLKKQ
Change | binding fitness [natural log]
E32K | -1.61
Q55S | -1.56
A49F | -1.32
R53Q | -1.51
T48L | -1.29
Q55H | -1.48
Q55W | -1.37
Q55M | -1.47

Excerpt of the above (set 1):
target | remaining binding [%]
Tyrosine-protein kinase ABL1, phosphorylated (ABL1, Homo sapiens, UniProt P00519, Q252H) | 84
SNRK (Homo sapiens, UniProt Q9NRH2) | 100
PIKFYVE (Homo sapiens, UniProt Q9Y2I7) | 100
